Assay results from different studies.
Lines come from different studies, so protocols differ. Numbers after ± are the reported error. Values after ≈ are worked out from the molar mass of the structure shown.

SMILES	assay	system	conditions	scale	measurement	value
C=C1C(=O)OC2CC(C)C3C=CC(=O)C3(C)C(O[Si](C)(C)C(C)C)C12 (stereo not drawn)	propidium iodide flow cytometry	primary splenocytes, BALB/c mouse	48 h, 10% fetal calf serum		CC50	0.36 ± 0.3 µg/mL (≈ 0.993 µM)
CC[C@H](C)C(=O)N1CCC(NC(=O)Nc2ccc(OC(F)(F)F)c(F)c2)CC1		human, plasma	oral, 24 mg, single dose, healthy volunteers		Tmax	1.25 h
NC(=O)CC[C@@H](NC(=O)[C@@H](CCC(N)=O)NC(=O)[C@@H](CC(N)=O)NC(=O)[C@@H](CC(N)=O)NC(=O)CNC(=O)Cc1ccc2ccccc2c1)C(=O)N[C@H](CC(N)=O)C(=O)N[C@H](Cc1ccc(OP(=O)(O)O)cc1)C(=O)O	strain sweep rheology	hydrogel	pH 7.4		maximum storage modulus	184 Pa
CN(C)C(=O)c1ncn2c(=O)n(C)nnc12		mouse CD-1 male, liver microsomes	50 µM, 2 h, pH 7.4	reference: time zero	remaining compound	81 ± 2%
Cc1ccc(/C=C/C(=O)O)cc1-c1cc2c(cc1C)C(C)(C)CCC2(C)C		Sprague-Dawley rat, male, plasma	oral, 100 mg/kg, 6 h, sesame oil vehicle		LDL level	7 ± 3.5 mg/dL
C/C=C/C=C/C/C=C/CCCCCCCc1cccc(O)c1O		female Kunming mice tumour-bearing, kidneys	intravenous, 10 mg/kg, 0.5 h		tissue concentration	30500 ± 3060 ng/g
COC(=O)C[C@](O)(CCCC(C)(C)OC(C)=O)C(=O)O[C@@H]1C(OC)=C[C@]23CCCN2CCc2cc4c(cc2[C@H]13)OCO4		CD1 mouse, bone marrow	subcutaneous, 1 mg/kg, 8 h, below quantification limit 1.00 ng/mL		tissue concentration	not detected
O=c1oc2cc(O)ccc2c2ccc(O)cc12	potentiometric titration	water, extrapolated from methanol/water	25 °C		pKa1	8.34
CC1(C)C(=CC=CC=CC2=[N+](CCCCN=[N+]=[N-])c3ccc(S(=O)(=O)[O-])cc3C2(C)C)N(CCCCCC(=O)O)c2ccccc21		DMSO			molar absorption coefficient	218000 M⁻¹ cm⁻¹
CSCC[C@@H]1NC(=O)[C@@H]2CSSC[C@H](NC(=O)[C@H](CO)NC(=O)[C@H](C)N)C(=O)N[C@@H](CCCNC(=N)N)C(=O)N[C@@H]([C@@H](C)O)C(=O)N3CCC[C@H]3C(=O)N[C@@H](CCCCN)C(=O)N[C@@H](CC(=O)O)C(=O)N[C@H]3CSSC[C@H](NC(=O)[C@H](CCCCN)NC(=O)[C@H](CCCNC(=N)N)NC(=O)[C@H](CC(N)=O)NC1=O)C(=O)N[C@@H](CCCCN)C(=O)N[C@H]1CSSC[C@H](NC(=O)[C@@H]4CCCN4C(=O)[C@H](CC(=O)O)NC(=O)[C@H](C)NC3=O)C(=O)N[C@@H](C)C(=O)N[C@@H](CCCCN)C(=O)N[C@@H](CCC(=O)O)C(=O)N[C@@H]([C@@H](C)O)C(=O)NCC(=O)N[C@@H](CSSC[C@@H](C(N)=O)NC(=O)[C@H](CCCNC(=N)N)NC(=O)[C@H](CC(N)=O)NC1=O)C(=O)N1CCC[C@H]1C(=O)N[C@@H](Cc1ccc(O)cc1)C(=O)NCC(=O)N[C@@H](CCCCN)C(=O)N2		DA rat, pristane-induced arthritis, serum	subcutaneous, 0.1 mg/kg every other day, end of 21-day trial		osmolality	261 mOsm/kg
CC(C)[C@H](NC(=O)CNC(=O)[C@H](CCC(N)=O)NC(=O)[C@H](C)N)C(=O)O		human	intravenous infusion, 15 mg/kg/h, 2 h, relatedness Probably	reference: subjects	drug-related adverse events	0%
Cc1ccc(OCC(=O)N(Cc2cccs2)c2ccn[nH]2)cc1		Sprague-Dawley rat, both sexes	oral gavage, 90 consecutive days, highest dose tested		NOAEL	100 mg/kg/day
CCN(Cc1ccccc1)C(=O)CCc1nc(CN2CCN(C(=O)Cc3ccc(OC)c(OC)c3)CC2)no1		rat, liver	intravenous, 1 mg/kg, 5 min, single dose		concentration	53 ng/g
O=C[C@H](C[C@@H]1CCNC1=O)NC(=O)[C@H](CC1CCCCC1)NC(=O)c1cc2ccccc2[nH]1		mouse	intravenous, 5 mg/kg		clearance	17.4 mL/min/kg
CCCCCCCC(=O)OC[C@H](NC(=O)[C@H](CO)NC(=O)CN)C(=O)N[C@@H](Cc1ccccc1)C(=O)N[C@@H](CC(C)C)C(=O)N[C@@H](CO)C(=O)N1CCC[C@H]1C(=O)N[C@@H](CCC(=O)O)C(=O)N[C@@H](Cc1cnc[nH]1)C(=O)N[C@@H](CCC(N)=O)C(=O)N[C@@H](CCCNC(=N)N)C(=O)N[C@H](C(=O)N[C@@H](CCC(N)=O)C(=O)N[C@@H](CCC(N)=O)C(=O)N[C@@H](CCCNC(=N)N)C(=O)N[C@@H](CCCCN)C(=O)N[C@@H](CCC(=O)O)C(=O)N[C@@H](CO)C(=O)N[C@@H](CCCCN)C(=O)N[C@@H](CCCCN)C(=O)N1CCC[C@H]1C(=O)N1CCC[C@H]1C(=O)N[C@@H](C)C(=O)N[C@@H](CCCCN)C(=O)N[C@@H](CC(C)C)C(=O)N[C@@H](CCC(N)=O)C(=O)N1CCC[C@H]1C(=O)N[C@@H](CCCNC(=N)N)C(=O)O)C(C)C		human, plasma	intravenous infusion, 1, 3 and 5 µg/kg/h		time to steady state	45 min
O=c1c2cc(Cl)ccc2sc2c(NCc3ccccc3)nc3ccccc3c12		BALB/c nude mice	i.p., 10 mg/kg		body weight	21.1 ± 0.35 g
[2H]C([2H])([2H])C([2H])([2H])C([2H])([2H])OC(C(=O)OC1CCNCC1)(c1ccccc1)c1ccccc1		healthy Japanese male subjects, plasma	oral, 10 mg, day 1, mean		tmax	4.3 h
O=C(C[P+]([Au-][Cl])(c1ccccc1)c1ccccc1)[O][Ti+2][O]C(=O)C[P+]([Au-][Cl])(c1ccccc1)c1ccccc1.c1cc[cH-]c1.c1cc[cH-]c1		DMSO/water 1:99	5 x 10 µM		pH	6.12
F[P-](F)(F)(F)(F)F.F[P-](F)(F)(F)(F)F.[Ru+2].c1ccc(-c2ccccn2)nc1.c1ccc(-c2ccccn2)nc1.c1csc(-c2ccc(-c3ccc(-c4cc5cccnc5c5ncccc45)s3)s2)c1			wavelength 625 nm		molar absorptivity	< 100 M⁻¹ cm⁻¹
CN[C@](C)(C[18F])C(=O)O		SCID mouse MDA-MB-468 xenograft, brain	120 min, post injection		tissue uptake	0.2 ± 0.03 %ID/g
CC[C@H](C)[C@@H]1NC(=O)[C@H](CCCNC(=N)N)NC(=O)[C@H](CCCNC(=N)N)NC(=O)[C@H](Cc2ccc(O)cc2)NC(=O)[C@H](CC(C)C)NC(=O)[C@@H]2CCCN2C(=O)[C@H](C)NC(=O)CNC(=O)CNC(=O)[C@H](CO)NC(=O)CNC(=O)CNC(=O)[C@H](CO)NC(=O)[C@H](CCC(=O)O)NC(=O)[C@H](CC(C)C)NC(=O)[C@H](CC(C)C)NC(=O)[C@H](CCCNC(=N)N)NC(=O)[C@H](CCCNC(=N)N)NC(=O)[C@H]([C@@H](C)CC)NC(=O)[C@H]([C@@H](C)CC)NC(=O)[C@H](CCCNC(=N)N)NC(=O)[C@H](CCCNC(=N)N)NC(=O)[C@H](Cc2ccc(O)cc2)NC(=O)[C@H](CC(C)C)NC(=O)[C@@H]2CCCN2C(=O)CNC(=O)CNC(=O)[C@@H](NC(=O)CN)CSSC[C@@H](C(N)=O)NC(=O)[C@H](CC(C)C)NC(=O)[C@H](CCCNC(=N)N)NC(=O)[C@H](CCCNC(=N)N)NC(=O)[C@H]([C@@H](C)CC)NC1=O	hemolysis	uninfected human erythrocytes	1 h		HC10	6.6 ± 0.9 µM
O=C(c1ccc(F)cc1)C1CCN(C2Cc3c(cccc3OCC[18F])CC2O)CC1 (single isomer, unassigned; (-))		Sprague-Dawley rat, striatum	5 to 120 min		tissue uptake	~0.8 %ID/g
COc1ccc(NC(=O)Cn2c(=O)c3ccccc3n(CC(=O)Nc3cc([125I])c(OC)cc3OC)c2=O)cc1		rat, pancreas	intravenous, 30 min		tracer uptake	0.14 %ID/g
N=C(N)NCc1ccc(C(=O)NCCCC[C@H](NC(=O)CCCCCCC(=O)NCCCC[C@H](NC(=O)N[C@@H](CCC(=O)O)C(=O)O)C(=O)O)C(=O)O)cc1[211At]		SCID mouse, PC-3 xenografts, thyroid	21 h		tissue uptake	3.74 ± 1.42 %ID/g
CC[C@H](C)[C@H](NC(=O)[C@H](CC(=O)O)NC(=O)[C@H](CO)NC(=O)[C@H](CCC(N)=O)NC(=O)[C@H](C)NC(=O)[C@H](CC(=O)O)NC(=O)[C@H](CCC(=O)O)NC(=O)[C@H](Cc1c[nH]cn1)NC(=O)[C@H](Cc1ccc(O)cc1)NC(=O)[C@H](C)NC(=O)[C@H](CC(=O)O)NC(=O)[C@H](CCC(=O)O)NC(=O)[C@H](Cc1c[nH]cn1)NC(=O)[C@H](Cc1ccc(O)cc1)NC(=O)[C@H](C)NC(=O)[C@H](CC(=O)O)NC(=O)[C@H](CCC(=O)O)NC(=O)[C@H](Cc1c[nH]cn1)NC(=O)[C@H](Cc1ccc(O)cc1)NC(=O)[C@H](C)NC(=O)[C@H](CC(=O)O)NC(=O)[C@H](CCC(=O)O)NC(=O)[C@H](Cc1c[nH]cn1)NC(=O)[C@H](Cc1ccc(O)cc1)NC(=O)[C@H](C)NC(=O)[C@H](CC(=O)O)NC(=O)[C@H](CCC(=O)O)NC(=O)[C@H](Cc1c[nH]cn1)NC(=O)[C@@H](N)Cc1ccc(O)cc1)C(=O)N[C@H](C(=O)N[C@@H](C)C(=O)N[C@@H](Cc1c[nH]cn1)C(=O)N[C@@H](CC(C)C)C(=O)N[C@@H](CC(C)C)C(=O)O)C(C)C		normal mouse, blood	dose not given		MO share of white cells	3.8 ± 0.5%
N=C(N)NCc1ccc(C(=O)NCCCC[C@H](NC(=O)N[C@@H](CCC(=O)O)C(=O)O)C(=O)O)cc1[211At]		SCID mouse, PC-3 xenografts, blood	2 h		tissue uptake	0.58 ± 0.08 %ID/g
O=P1(NCCCl)NCCCO1 (stereo not drawn)		rat, plasma	intravenous, 10 mg/kg, with: ketoconazole 40 mg/kg oral 50 min before		MRT(0-inf)	7.7 ± 0.921 h
C[C@]12CC[C@H](OCC[18F])C[C@H]1CC[C@@H]1[C@@H]2CC[C@]2(C)[C@@H](c3ccc(=O)oc3)CC[C@]12O	micro-PET	BALB/c nude mice, HepG2 xenograft, liver	intravenous, 7.4 MBq, 5 min		peak tissue uptake	39.8 ± 2.77 %ID/g
CCNc1cc2[o+]c3cc(NCC)c(C)cc3c(-c3ccccc3C(=O)OCCOCC[18F])c2cc1C		rat	30 min	reference: heart over bone	tissue uptake ratio	4.6
CN(C)C(CNC(=O)Nc1cc(C(F)(F)F)ccc1N1CCOCC1)c1ccncc1 (stereo not drawn)		mouse, serum	intraperitoneal, 240 mg/kg single dose		serum magnesium	2.5 mg/dL

For quick reference, copied from above:
SMILES	assay	system	conditions	scale	measurement	value
[2H]C([2H])([2H])C([2H])([2H])C([2H])([2H])OC(C(=O)OC1CCNCC1)(c1ccccc1)c1ccccc1		healthy Japanese male subjects, plasma	oral, 10 mg, day 1, mean		tmax	4.3 h
Cc1ccc(/C=C/C(=O)O)cc1-c1cc2c(cc1C)C(C)(C)CCC2(C)C		Sprague-Dawley rat, male, plasma	oral, 100 mg/kg, 6 h, sesame oil vehicle		LDL level	7 ± 3.5 mg/dL
O=P1(NCCCl)NCCCO1 (stereo not drawn)		rat, plasma	intravenous, 10 mg/kg, with: ketoconazole 40 mg/kg oral 50 min before		MRT(0-inf)	7.7 ± 0.921 h
C/C=C/C=C/C/C=C/CCCCCCCc1cccc(O)c1O		female Kunming mice tumour-bearing, kidneys	intravenous, 10 mg/kg, 0.5 h		tissue concentration	30500 ± 3060 ng/g
